Experimental data from different studies.
A part holds a random share of what one study measured. Substitutions count along the parent as printed.

Block 1 — technique: DHFR PCA, deep sequencing; matrix: yeast; added: (+)-ABA 17 µM; baseline: wild-type fitted maximum; reading: higher = stronger binding; endpoint: relative binding score
Target: ABI1, truncated, D143A, DHFR fusion (Arabidopsis thaliana)
Setting: methotrexate growth selection, single substitutions
Parent: PYL1, truncated, DHFR fusion (Arabidopsis thaliana); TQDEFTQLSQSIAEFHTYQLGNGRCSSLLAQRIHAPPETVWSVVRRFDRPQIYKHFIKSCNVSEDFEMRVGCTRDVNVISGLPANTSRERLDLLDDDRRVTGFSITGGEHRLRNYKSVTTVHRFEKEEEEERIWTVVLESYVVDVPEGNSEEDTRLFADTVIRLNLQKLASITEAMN
Substitution = F103T; value = -11%
Substitution = N149M; value = 10.9%
Substitution = E139H; value = 54.8%
Substitution = C60W; value = 1.77%
Substitution = E109C; value = 63.2%
Substitution = T86L; value = 51.4%
Substitution = G21V; value = 82.5%
Substitution = D159H; value = -1.45%
Substitution = E14V; value = 49.9%
Substitution = S117H; value = -4.57%
Substitution = R69A; value = 82.1%
Substitution = S104L; value = 4.97%
Substitution = Y115G; value = -1.67%
Substitution = L138P; value = -1.66%
Substitution = S9Y; value = 59.8%
Substitution = R132H; value = 87.7%

Block 2 — technique: protein binding microarray; form: double-stranded DNA, one strand shown; matrix: in vitro; tested at: not given; baseline: not given; reading: higher = stronger binding; endpoint: E-score
Target: Histone acetyltransferase KAT6A, winged helix 1, GST fusion (KAT6A, Homo sapiens, UniProt Q92794, residues 1-85)
Setting: 8-mer, flanks averaged, mean of 2 arrays, mostly near background
Residues (chain): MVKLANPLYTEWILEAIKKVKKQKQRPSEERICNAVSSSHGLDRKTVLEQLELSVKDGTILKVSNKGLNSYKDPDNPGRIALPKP
Strand = GTCTTACA; value = -0.0643
Strand = CATTGTGA; value = -0.237
Strand = CAGTCGGC; value = 0.245
Strand = CGGGCCCC; value = 0.365
Strand = AATCGATC; value = -0.232
Strand = GCGCCCAC; value = 0.228
Strand = CGTCTGTA; value = -0.0329
Strand = CCGAACCG; value = 0.267
Strand = CCGCGTAG; value = 0.27
Strand = CTTCGGCA; value = 0.161
Strand = CTGCCATC; value = -0.136
Strand = AGGAGTAA; value = -0.0371
Strand = CCCATGGA; value = -0.232
Strand = ATCTAATA; value = -0.161
Strand = CCAGTGGC; value = -0.193
Strand = CCACGGCA; value = 0.333
Strand = GTAGTAAC; value = 0.0426

Block 3 — target: UBE2V1 UBC core domain (UniProt Q13404); technique: yeast two-hybrid; matrix: yeast; setting: mostly zero background; baseline: not given; reading: higher = stronger interaction; endpoint: lacZ reporter activity
B1: TRAF5 RING domain (UniProt O00463); chain FVERLEERYKCAFCHSVLHNPHQTGCGHRFCQHCILSLRELNTVPICPVDKEVIKSQEVFK
B2: TRIM5 RING domain (UniProt Q9C035); chain LREVKLSPEGQKVDHCARHGEKLLLFCQEDGKVICWLCERSQEHRGHHTFLTEEVAREYQVKL
B3: TRIML1 RING domain (UniProt Q8N9V2); chain LMENLREELTCFICLDYFSSPVTTECGHSFCLVCLLRSWEEHNTPLSCPECWRTLEGPHFQS
B4: DTX4 RING domain (UniProt Q9Y2E6); chain QKVRHPPDEDCTICMERLTAPSGYKGPQPTVKPDLVGKLSRCGHVYHIYCLVAMYNNGNKDGSLQCPTCKTIYGVKTGTQ
B5: MKRN1 RING domain (UniProt Q9UHC7); chain FAVQRSKDMVCGICMEVVYEKANPSERRFGILSNCNHTYCLKCIRKWRSAKQFESKIIKSCPECRITSNFVIPSE
B6: RNF208 RING domain (UniProt Q9H0X6); chain SSAAAGEPLECPTCGHSYNVTQRRPRVLSCLHSVCEQCLQILYESCPKYKFISCPTCRRETVLFTDYG
B7: RNF38 RING domain (UniProt Q9H0F5); chain PNNHQSEQTLCVVCMCDFESRQLLRVLPCNHEFHAKCVDKWLKANRTCPICRADASEVHRDS
Construct (chain): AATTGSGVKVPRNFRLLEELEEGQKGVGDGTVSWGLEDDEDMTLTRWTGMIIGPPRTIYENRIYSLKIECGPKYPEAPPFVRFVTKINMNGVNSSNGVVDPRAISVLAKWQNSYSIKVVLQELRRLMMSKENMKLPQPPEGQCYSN
Sequence = DHGAVGQEMCCPICCSEYVKGEVATELPCHHYFHKPCVSIWLQKSGTCPVCRCMFPPPL (PJA1 RING domain (UniProt Q8NG27)); value = 0
Sequence = B1 (TRAF5 RING domain); value = 0
Sequence = B2 (TRIM5 RING domain); value = 0
Sequence = B3 (TRIML1 RING domain); value = 0
Sequence = B4 (DTX4 RING domain); value = 0
Sequence = B5 (MKRN1 RING domain); value = 0
Sequence = B6 (RNF208 RING domain); value = 0
Sequence = B7 (RNF38 RING domain); value = 0
Sequence = PAELEVQASECVVCLEREAQMIFLNCGHVCCCQQCCQPLRTCPLCRQDIAQRLRIY (LRSAM1 RING domain (UniProt Q6UWE0)); value = 0
Sequence = FQGDVDEDLICPICSGVLEEPVQAPHCEHAFCNACITQWFSQQQTCPVDRSVVTVAHLRP (RNF41 RING domain (UniProt Q9H4P4)); value = 0

Block 4 — technique: RNA Bind-n-Seq; form: RNA; matrix: in vitro; tested at: 365 nM; baseline: no-protein control; reading: higher = stronger binding; endpoint: RBNS enrichment (R)
Target: RNA binding protein fox-1 homolog 2, RRM domain, GST-SBP tag (RBFOX2, Homo sapiens, UniProt O43251-10, residues 100-194)
Setting: natural RNA segment, single round, ends assumed
Shared flanks, not repeated: GGGAGUUCUACAGUCCGACGAUC … UGGAAUUCUCGGGUGCCAA
Residues (chain): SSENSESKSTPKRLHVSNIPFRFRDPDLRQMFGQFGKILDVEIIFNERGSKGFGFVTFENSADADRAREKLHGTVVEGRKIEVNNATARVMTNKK
Strand = UGAGGCCCUAAGGUCUCAGUGCAUAGCAUACCUGCCACUCUGGAUGUUUUCCUGGGCUUCAUAUCUGUAUGGCAAGGAGGGAGCUGUCCUUCAGCAGACAAAGUCAAGCA; value = 2.16
Strand = UCCUCUCUAGCACUUCUCACCACUGAGCCAUCUCUCCAGCCCCAAUAACUUUAUUUUUUAAGACAGGGUUGCAAAUGUUUAAGAAACCAGAAGCAGGUAAAUCUGCCUAU; value = 0.372
Strand = AGAAUUACCUAUUCUACGUGCCUUUUCUUAGGAAAAGAGAGUACUGGAUCAUGGUUUUCUUCCUUACUUACAGGUUGCUUCACACUGAGUGAUAAUUUAAAAUUGUUUCU; value = 0.28
Strand = GCAGUUAACCUUCAAGACAUUCCACUUGCUAAAAUUAUUUAUUUUGUAAGGAGAGGUUUUAAUUAAAACAAAAAAAAAUUCUUUUUUUUUUUUUUUUCCAAUUUUACCUU; value = 0.878
Strand = ACAUGGUGGUGGAAGGUAGAAAUCUUUGGGAUACUUAGACUUCAAGUCUUUUACAAGAGGGACAACCCUAUUUUGGGAAACAAUAUCUCAUGGGAAGAAAACUGUACACA; value = 0.267
Strand = GCCUCCUGCUGACCCCUGACAGCGUCCCGUGGCAUUUCUUUCAUGUCUGCAUAUUGCAUAGCCUUGUCCUCCUGUGUGCCUGAGCUCCUCCCUUUUCAAUAAGAUUAUUA; value = 1.02
Strand = CGACUACUUCAAAAUGAUCUGAAAAGUUAUCACACAAAAAGGGUCUACUGUAGGAUCUUACAUUCUGUUAGUAGUACAAAGGGAAGAGUUUUCCUAAUCCUUCCUUACCA; value = 0.309
Strand = UCUGCCACAAACAGAAUUCGAGACAUACUUAAUUUUGAAUUUCUCCUUGCCACGUUAAUAAAGCCAAAAGCAGCGGGUGCUAUUCGUGGCAACACACUUCACUGAACCCA; value = 0.666

Block 5 — target: ATF3, bZIP domain (human); technique: DHFR protein complementation; matrix: yeast; baseline: wild-type JUN-FOS pair; reading: higher = stronger binding; endpoint: binding fitness
Setting: single substitutions, most at no-binding floor
Parent: JUN, bZIP domain (human); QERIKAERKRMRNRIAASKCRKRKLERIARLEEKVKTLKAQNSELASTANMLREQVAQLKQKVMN; partner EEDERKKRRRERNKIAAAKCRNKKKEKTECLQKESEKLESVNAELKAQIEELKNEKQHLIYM
Substitution = L38G; value = -1.08 natural log
Substitution = R30Y; value = -0.13 natural log
Substitution = L38R; value = -1.05 natural log
Substitution = E32A; value = -0.00717 natural log
Substitution = L45S; value = -1.28 natural log
Substitution = A40F; value = -0.215 natural log
Substitution = L38F; value = -0.701 natural log
Substitution = N42E; value = -0.512 natural log
Substitution = L31G; value = -1.08 natural log
Substitution = M51K; value = -0.072 natural log
Substitution = S43W; value = -0.23 natural log
Substitution = E32N; value = -0.53 natural log
Substitution = M51Y; value = -0.253 natural log
Substitution = I28A; value = -0.192 natural log
Substitution = T48V; value = -0.126 natural log
Substitution = K39C; value = -0.575 natural log
Substitution = R30P; value = -0.107 natural log
Substitution = L45I; value = -1.05 natural log
Substitution = S47D; value = -0.0707 natural log
Substitution = L52M; value = -0.416 natural log
Substitution = E54W; value = -0.452 natural log
Substitution = K36G; value = -0.282 natural log
Substitution = R53F; value = -0.54 natural log
Substitution = S43I; value = -0.135 natural log
